Assay results gathered from unrelated publications.
Numbered parts are unrelated; each lists some results of a single study.

Set 1 — organism: Saccharomyces cerevisiae; effect on: binding; method: competitive growth deep sequencing; molecule type: peptide; strain: cyclin E1-Cln2 fusion strain; tested at: concentration not given; setting: peptide tiling library; direction: direction not given
For `GTPKRCLDLSNLSSGE`, “growth enrichment score” read 0.481.
For `HPESPPRKRLKSKGSD`, “growth enrichment score” read -0.301.
`IPMIAKNLMCELDE` — result for “growth enrichment score”: 0.34.
`IFNKPECGRVQRAIFQ` — result for “growth enrichment score”: 0.631.
For `PKRAKRKLYTSEISSP`, “growth enrichment score” read 0.252.
`TSSAQRRLEIPSGGAD` — result for “growth enrichment score”: -0.315.
Under “growth enrichment score”, `SNFFDVIKQLFSDEKN` is recorded as 1.46.
For `PKNAKRNLSSEFAN`, “growth enrichment score” read 1.57.
Under “growth enrichment score”, `ASVLSKPIFCFVKD` is recorded as 0.738.
Under “growth enrichment score”, `TLPYDLACTGGDFVLF` is recorded as 0.218.
`DWDTVERQEEEAPSWD` — result for “growth enrichment score”: 1.24.
For `TQERKQIHCLSEDELS`, “growth enrichment score” read 0.289.
`MNQELLSVGSKRRRTG` — result for “growth enrichment score”: 1.31.

Set 2 — method: protein-binding microarray; molecule type: double-stranded DNA, one strand shown; sample: in vitro; tested at: 250 nM; setting: 60-bp whole probe; with: salmon DNA 0.4 mg/ml; baseline: random background probes; direction: higher = stronger binding; shared flanks, not repeated: GCCTAGCAC … GTCTTGATTCGCTTGACGCTGCTG
Target: Interferon regulatory factor 7, full length, phosphomimetic (IRF7, Homo sapiens, UniProt Q92985, residues 1-503, S101K/S471D/S472D/S475D/S476D/S477D/S483D/S484D/S487D)
Chain of UniProt Q92985 (whole entry, unmodified, looked up): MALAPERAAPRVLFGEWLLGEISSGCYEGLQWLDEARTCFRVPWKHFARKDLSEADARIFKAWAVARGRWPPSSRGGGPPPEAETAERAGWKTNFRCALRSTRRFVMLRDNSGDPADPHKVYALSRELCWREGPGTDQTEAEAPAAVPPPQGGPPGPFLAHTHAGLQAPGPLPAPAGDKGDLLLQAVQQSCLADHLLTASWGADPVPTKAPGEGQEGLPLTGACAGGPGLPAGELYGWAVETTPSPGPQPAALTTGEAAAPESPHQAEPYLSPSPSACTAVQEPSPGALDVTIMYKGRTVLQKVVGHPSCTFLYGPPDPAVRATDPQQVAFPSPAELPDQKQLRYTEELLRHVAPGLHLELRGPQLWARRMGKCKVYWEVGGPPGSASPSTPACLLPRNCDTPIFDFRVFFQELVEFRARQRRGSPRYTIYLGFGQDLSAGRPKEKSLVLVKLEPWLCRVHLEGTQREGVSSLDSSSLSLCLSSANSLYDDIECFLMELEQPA
The log fluorescence of `CACGGTCTCGGTATCGGGACGTGCTAG` is reported as 2.05 z-score.
For `GACGCTTTCGGGTTTCGAGACGTGCTA`, the log fluorescence was 4.87 z-score.
The log fluorescence of `TTAGGACTGGGGTTTCAGTTAGTGCTA` is reported as -0.000872 z-score.
With `GGATCTTGCAGATGTCGCTGGGTGCTA` the log fluorescence was -0.471 z-score.
`TTAGATCTCCTACTGCTTTAGTGCTAG` has a log fluorescence of 0.0826 z-score.
`TTAGGACTTGACTTTCGGTTAGTGCTA` has a log fluorescence of 1.45 z-score.
`TTAGGTCTCCTACTTCTTTAGTGCTAG` gave a log fluorescence of 0.28 z-score.
The log fluorescence of `GACAAACTGAGACTGGAGACGTGCTAG` is reported as 0.0538 z-score.
`TTAGATCTCAGACTGGATGAGTGCTAG` has a log fluorescence of 0.144 z-score.
`GACGGACTGGACTTTCGGGACGTGCTA` has a log fluorescence of -0.477 z-score.
`TTAGCTCTCAGTTTCGATTAGTGCTAG` gave a log fluorescence of 7.12 z-score.
With `TCAGCTGTTTTTCTCACACTGTGCTAG` the log fluorescence was 0.338 z-score.
The log fluorescence of `TGTTTTACAGGTTCTCTTTTAGTGCTA` is reported as 3.42 z-score.
`CCCAATAATCTTTTCACTTTGTGCTAG` gave a log fluorescence of 1.18 z-score.
`TTAGGTATCGGTCTCGGATAGTGCTAG` has a log fluorescence of 1.35 z-score.
With `GACGAACTGGGGTATCTAGACGTGCTA` the log fluorescence was -1.07 z-score.
`TCAAGCTTGGGTCTGTGACTGTGCTAG` gave a log fluorescence of -0.904 z-score.
For `TCAGGTCTCGGTATCGGTTAGTGCTAG`, the log fluorescence was 3.32 z-score.
`TCAACGAATTAGAAAGAGCAGTGCTAG` gave a log fluorescence of 0.247 z-score.

Set 3 — method: universal PBM; molecule type: double-stranded DNA, one strand shown; sample: in vitro; tested at: 600 nM; direction: higher = stronger binding
Target: Sal-like protein 4, full length isoform A (SALL4, Homo sapiens, UniProt Q9UJQ4, residues 1-1053)
Chain of UniProt Q9UJQ4 (whole entry, looked up): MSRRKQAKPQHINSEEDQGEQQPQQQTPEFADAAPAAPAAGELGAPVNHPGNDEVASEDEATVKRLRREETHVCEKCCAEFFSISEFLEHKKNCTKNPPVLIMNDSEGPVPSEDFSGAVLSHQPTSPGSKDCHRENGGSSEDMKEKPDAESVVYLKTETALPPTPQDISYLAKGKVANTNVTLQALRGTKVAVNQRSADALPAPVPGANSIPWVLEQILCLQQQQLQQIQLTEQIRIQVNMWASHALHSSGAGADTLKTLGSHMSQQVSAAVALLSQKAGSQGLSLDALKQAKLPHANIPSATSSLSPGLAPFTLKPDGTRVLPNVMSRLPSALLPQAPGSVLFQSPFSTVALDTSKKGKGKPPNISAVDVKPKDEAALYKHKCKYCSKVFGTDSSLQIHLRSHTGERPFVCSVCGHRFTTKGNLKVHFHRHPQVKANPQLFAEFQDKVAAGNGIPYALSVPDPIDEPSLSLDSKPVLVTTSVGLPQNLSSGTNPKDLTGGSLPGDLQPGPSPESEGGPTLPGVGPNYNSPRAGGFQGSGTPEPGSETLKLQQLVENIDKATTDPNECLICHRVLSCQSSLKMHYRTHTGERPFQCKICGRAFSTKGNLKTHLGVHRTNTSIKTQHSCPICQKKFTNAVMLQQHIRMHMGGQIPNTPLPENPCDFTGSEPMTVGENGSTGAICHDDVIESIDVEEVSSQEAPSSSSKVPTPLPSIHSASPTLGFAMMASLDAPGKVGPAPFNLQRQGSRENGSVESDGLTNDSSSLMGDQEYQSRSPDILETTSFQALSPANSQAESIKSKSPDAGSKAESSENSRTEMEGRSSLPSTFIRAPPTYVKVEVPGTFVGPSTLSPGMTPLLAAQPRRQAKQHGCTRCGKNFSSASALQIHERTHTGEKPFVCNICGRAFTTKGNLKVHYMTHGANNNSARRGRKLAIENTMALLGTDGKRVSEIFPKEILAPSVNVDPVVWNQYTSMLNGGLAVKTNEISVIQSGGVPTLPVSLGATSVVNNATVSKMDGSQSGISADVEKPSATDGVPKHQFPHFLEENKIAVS
Setting: 8-mer, flanks averaged, mean of replicates
The E-score of `ACATTACG` is reported as 0.188.
With `CCGAGAGC` the E-score was -0.215.
The E-score of `CGCCTACC` is reported as -0.271.
`ATTAACGA` has an E-score of 0.282.
`GGTGTTAC` has an E-score of -0.0413.
With `AACTTATA` the E-score was 0.307.
With `AACAGCTG` the E-score was 0.00907.
With `ATGGCGTC` the E-score was -0.164.
`GCTCAAAC` has an E-score of -0.0857.
For `CTTCTTAA`, the E-score was 0.181.
With `GCAGATGA` the E-score was -0.0847.
With `CCGCACTA` the E-score was -0.236.
`AAGGTTGA` has an E-score of 0.114.
`CCGATTAA` gave an E-score of 0.153.
For `CGCTAGCA`, the E-score was -0.156.
For `ACATTGAA`, the E-score was 0.292.
With `GACCCTGA` the E-score was -0.25.
The E-score of `ACATCACC` is reported as -0.0326.
For `AAAGCCGT`, the E-score was 0.00366.
`AAGAAATA` gave an E-score of 0.315.
`GTAGGTTA` has an E-score of 0.0618.

Further values, each from its own experiment
With `PhoQ, residues 284 288 289 292 302 303 ALASRC` the fold induction was 1.75 (PhoP, residues 12 14 15 18 19 NYFTV (Escherichia coli, UniProt P23836); Sort-seq, measured: YFP reporter; E. coli; PhoQ-PhoP variant library, with: 10 µM Mg2+; baseline: high Mg2+ state, higher = stronger signaling).

Some of these lines once more (set 2):
`CCCAATAATCTTTTCACTTTGTGCTAG` gave a log fluorescence of 1.18 z-score.
`GACGGACTGGACTTTCGGGACGTGCTA` has a log fluorescence of -0.477 z-score.
With `GACGAACTGGGGTATCTAGACGTGCTA` the log fluorescence was -1.07 z-score.
`TTAGATCTCCTACTGCTTTAGTGCTAG` has a log fluorescence of 0.0826 z-score.
`TTAGCTCTCAGTTTCGATTAGTGCTAG` gave a log fluorescence of 7.12 z-score.
With `TCAGCTGTTTTTCTCACACTGTGCTAG` the log fluorescence was 0.338 z-score.
`TTAGGTCTCCTACTTCTTTAGTGCTAG` gave a log fluorescence of 0.28 z-score.
For `TCAGGTCTCGGTATCGGTTAGTGCTAG`, the log fluorescence was 3.32 z-score.
The log fluorescence of `TTAGGACTGGGGTTTCAGTTAGTGCTA` is reported as -0.000872 z-score.
